# Assay results pooled from the literature.
# A part holds a random share of what one study measured. Substitutions count along the parent as printed.

# Study 1
# Target: UBE2L6 UBC core domain (UniProt O14933)
# Method: yeast two-hybrid
# Matrix: yeast
# Setting: mostly zero background
# Baseline: not given
# Direction: higher = stronger interaction
# B1: RNF32 RING domain (UniProt Q9H0A6); chain SLLQGDSVQPCPICKEEFELRPQVLLSCSHVFHKACLQAFEKFTNKKTCPLCRKNQYQTRVIH
# B2: TRIM15 RING domain (UniProt Q9C019); chain SLKVVHELPACTLCAGPLEDAVTIPCGHTFCRLCLPALSQMGAQSSGKILLCPLCQEEEQAETPMA
# B3: NSMCE1 RING domain (UniProt Q8WV22); chain RETYPDAVKICNICHSLLIQGQSCETCGIRMHLPCVAKYFQSNAEPRCPHCNDYWPHEIPKV
# B4: RNF175 RING domain (UniProt Q8N4F7); chain LPTRSLSDNICAVCGQKIIVELDEEGLIENTYQLSCNHVFHEFCIRGWCIVGKKQTCPYCKEKVDLKRMIS
# B5: RNF112 RING domain (UniProt Q9ULX5); chain QPMAPRELPTCSICLERLRDPISLDCGHDFCIRCFSTHRLPGCEPPCCPECRKICKQKRGLR
# B6: TRIM55 RING domain (UniProt Q9BYV6); chain TMDNLEKQLICPICLEMFTKPVVILPCQHNLCRKCASDIFQASNPYLPTRGGTTMASGGRFRCPSCRHEVVLDRHG
# B7: RNF4 RING domain (UniProt P78317); chain TGLRPSGTVSCPICMDGYSEIVQNGRLIVSTECGHVFCSQCLRDSLKNANTCPTCRKKINHKRYHP
# B8: RFPL2 RING domain (UniProt O75678); chain MAALFQEASSCPVCSDYLEKPMSLECGCAVCLKCINSLQKEPHGEDLLCCCSSMVSRKNKIRR
# B9: UBE4A RING domain (UniProt Q14139); chain LQQQEEETYADACDEFLDPIMSTLMCDPVVLPSSRVTVDRSTIARHLLSDQTDPFNRSPLTMDQIRPNTELKEKIQRWLAERKQQKEQLE
# B10: ANKIB1 RING domain (UniProt Q9P2G1); chain LSPGDLDTSLCDICMCSISVFEDPVDMPCGHDFCRGCWESFLNLKIQEGEAHNIFCPAYDCFQLVPVDIIE
# B11: TRIM38 RING domain (UniProt O00635); chain STKKMMEEATCSICLSLMTNPVSINCGHSYCHLCITDFFKNPSQKQLRQETFCCPQCRAPFHMDSLRP
# Target sequence (chain): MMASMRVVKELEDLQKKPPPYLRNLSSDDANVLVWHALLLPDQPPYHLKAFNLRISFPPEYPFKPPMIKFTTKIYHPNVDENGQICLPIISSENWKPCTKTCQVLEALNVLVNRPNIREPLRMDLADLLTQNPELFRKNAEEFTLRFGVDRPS
Sequence,lacZ reporter activity
B1 (RNF32 RING domain),0
B2 (TRIM15 RING domain),0
B3 (NSMCE1 RING domain),0
ISNDSETLEECMVCSDMKRDTLFGPCGHIATCSLCSPRVKKCLICKEQVQSRTKIE (MIB1 RING domain (UniProt Q86YT6)),0
FLKKLEQSFMCVCCQELVYQPVTTECFHNVCKDCLQRSFKAQVFSCPACRHDLGQNYIMI (UHRF2 RING domain (UniProt Q96PU4)),0
SYEDKSNDFVCPICFDMIEEAYMTKCGHSFCYKCIHQSLEDNNRCPKCNYVVDNIDHLY (COP1 RING domain (UniProt Q8NHY2)),0
B4 (RNF175 RING domain),0
KRQCSDVDDICSICQAEFQKPILLICQHIFCEECMTLWFNREKTCPLCRTVISDHINKW (RNFT1 RING domain (UniProt Q5M7Z0)),0
B5 (RNF112 RING domain),0
B6 (TRIM55 RING domain),0
B7 (RNF4 RING domain),2110
B8 (RFPL2 RING domain),0
B9 (UBE4A RING domain),0
B10 (ANKIB1 RING domain),0
B11 (TRIM38 RING domain),0

# Study 2
# Partner: ARF13 (Arabidopsis thaliana, UniProt Q9FX25)
# Method: two-hybrid
# Baseline: out of 4 tests
# Direction: higher = firmer interaction
# B12: IAA19 (Arabidopsis thaliana, UniProt O24409); chain MEKEGLGLEITELRLGLPGRDVAEKMMKKRAFTEMNMTSSGSNSDQCESGVVSSGGDAEKVNDSPAAKSQVVGWPPVCSYRKKNSCKEASTTKVGLGYVKVSMDGVPYLRKMDLGSSQGYDDLAFALDKLFGFRGIGVALKDGDNCEYVTIYEDKDGDWMLAGDVPWGMFLESCKRLRIMKRSDATGFGLQPRGVDE
# B13: ARF12 500-593 (Arabidopsis thaliana, UniProt Q9XID4); chain TEIQNKQFSSSRTCTKVQMQGVTIGRAVDLSVLNGYDQLILELEKLFDIKGQLQTRNQWEIAFTDSDEDKMLVGDDPWPEFCNMVKKIFIQKRR
# B14: ARF5 788-902 (Arabidopsis thaliana, UniProt P93024); chain ATPRVRTYTKVQKTGSVGRSIDVTSFKDYEELKSAIECMFGLEGLLTHPQSSGWKLVYVDYESDVLLVGDDPWEEFVGCVRCIRILSPTEVQQMSEEGMKLLNSAGINDLKTSVS
# B15: IAA33 (Arabidopsis thaliana, UniProt Q9FKM7); chain MNSFEPQSQDSLQRRFHQDNSTTQQPRDTTTPFIPKPASKNHNNSNSSSGAAGRSFQGFGLNVEDDLVSSVVPPVTVVLEGRSICQRISLDKHGSYQSLASALRQMFVDGADSTDDLDLSNAIPGHLIAYEDMENDLLLAGDLTWKDFVRVAKRIRILPVKGNTRQVKRNE
# B16: ARF1 538-665 (Arabidopsis thaliana, UniProt Q8L7G0); chain SRQIRSCTKVHMQGSAVGRAIDLTRSECYEDLFKKLEEMFDIKGELLESTKKWQVVYTDDEDDMMMVGDDPWNEFCGMVRKIFIYTPEEVKKLSPKNKLAVNARMQLKADAEENGNTEGRSSSMAGSR
# B17: ARF4 660-788 (Arabidopsis thaliana, UniProt Q9ZTX9); chain QSSSKRICTKVHKQGSQVGRAIDLSRLNGYDDLLMELERLFNMEGLLRDPEKGWRILYTDSENDMMVVGDDPWHDFCNVVWKIHLYTKEEVENANDDNKSCLEQAALMMEASKSSSVSQPDSSPTITRV
# B18: IAA18 (Arabidopsis thaliana, UniProt O24408); chain MEGYSRNGEISPKLLDLMIPQERRNWFHDEKNSVFKTEEKKLELKLGPPGEEDDDESMIRHMKKEPKDKSILSLAGKYFSPSSTKTTSHKRTAPGPVVGWPPVRSFRKNLASGSSSKLGNDSTTSNGVTLKNQKCDAAAKTTEPKRQGGMFVKINMYGVPIGRKVDLSAHNSYEQLSFTVDKLFRGLLAAQRDFPSSIEDEKPITGLLDGNGEYTLTYEDNEGDKMLVGDVPWQMFVSSVKRLRVIKTSEISSALTYGNGKQEKMRR
# B19: IAA32 (Arabidopsis thaliana, UniProt Q8RYC6); chain MDPNTPADFFKGSSKFHTYYSQTKKGGGVIDLGLSLRTIQHETYLPPARMIGLDGYGELIDWSQPSYNSITQLKSEDTGHQRLAQGYYNNEGESRGKYAYVKVNLDGLVVGRKVCLVDQGAYATLALQLNDMFGMQTVSGLRLFQTESEFSLVYRDREGIWRNVGDVPWKEFVESVDRMRIARRNDALLPF
# Construct (chain): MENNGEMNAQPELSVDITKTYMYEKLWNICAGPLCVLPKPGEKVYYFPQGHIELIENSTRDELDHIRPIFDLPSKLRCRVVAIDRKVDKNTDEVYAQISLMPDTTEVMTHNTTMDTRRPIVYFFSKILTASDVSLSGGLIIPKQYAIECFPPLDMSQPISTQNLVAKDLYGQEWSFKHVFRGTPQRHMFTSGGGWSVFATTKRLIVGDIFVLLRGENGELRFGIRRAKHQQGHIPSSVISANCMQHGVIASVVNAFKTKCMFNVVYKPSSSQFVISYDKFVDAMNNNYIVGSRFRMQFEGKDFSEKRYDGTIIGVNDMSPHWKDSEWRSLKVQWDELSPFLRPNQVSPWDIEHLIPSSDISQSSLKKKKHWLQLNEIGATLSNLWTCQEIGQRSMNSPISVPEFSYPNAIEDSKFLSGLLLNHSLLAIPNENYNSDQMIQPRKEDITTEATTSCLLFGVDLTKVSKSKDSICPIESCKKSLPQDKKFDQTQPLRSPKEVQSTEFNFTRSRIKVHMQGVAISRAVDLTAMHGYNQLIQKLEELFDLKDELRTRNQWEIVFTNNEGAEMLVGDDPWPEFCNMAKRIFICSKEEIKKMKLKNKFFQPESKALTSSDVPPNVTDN
Sequence,positive tests
B12 (IAA19),0
B13 (ARF12 500-593),0
B14 (ARF5 788-902),0
B15 (IAA33),1
B16 (ARF1 538-665),0
B17 (ARF4 660-788),0
B18 (IAA18),0
B19 (IAA32),1

# Study 3
# Target: ABI1, truncated, D143A, DHFR fusion (Arabidopsis thaliana)
# Method: DHFR PCA, deep sequencing
# Matrix: yeast
# Setting: methotrexate growth selection, single substitutions
# Together with: (+)-ABA 0.11 µM
# Baseline: wild-type fitted maximum
# Direction: higher = stronger binding
# Parent: PYL1, truncated, DHFR fusion (Arabidopsis thaliana); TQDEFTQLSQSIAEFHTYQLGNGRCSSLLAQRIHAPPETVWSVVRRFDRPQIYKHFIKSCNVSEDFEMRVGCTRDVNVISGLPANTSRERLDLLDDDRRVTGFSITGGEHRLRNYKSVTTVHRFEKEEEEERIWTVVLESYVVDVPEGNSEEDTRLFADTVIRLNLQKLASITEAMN; partner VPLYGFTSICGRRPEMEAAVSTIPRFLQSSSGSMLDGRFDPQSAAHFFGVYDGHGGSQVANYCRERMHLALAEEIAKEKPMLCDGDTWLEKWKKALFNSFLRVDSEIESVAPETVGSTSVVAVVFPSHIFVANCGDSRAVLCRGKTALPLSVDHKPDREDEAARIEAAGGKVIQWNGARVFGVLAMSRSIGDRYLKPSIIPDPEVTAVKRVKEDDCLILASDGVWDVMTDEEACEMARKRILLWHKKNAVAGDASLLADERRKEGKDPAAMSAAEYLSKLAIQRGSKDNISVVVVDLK
Change,relative binding score [%]
H34A,42.3
E151H,20.9
L20N,30.4
F103E,-10.7
E127T,35.1
F56R,-0.395
I133A,50.2
N85G,29.9
T154C,-3.93
E4R,5.32
F124E,9.17
V142A,20.2
F56P,3.41
L93F,8.96
T119N,-3.79
N61K,61.2

# Study 4
# Target: CCNE2, cyclin fold, Cln2 fusion (human)
# Method: yeast growth competition, sequencing
# Matrix: yeast
# Setting: weak parent motif
# Baseline: not given
# Direction: higher = stronger binding
# Parent: PKMYT1 docking peptide (human); SFEPRNLLSLFED
Change,normalised enrichment score
F11E,-0.111
F2Y,-0.24
L10Y,-0.078
S1Q,-0.129
S1Y,-0.971
R5T,-0.006
P4C,0.943
L10R,0.138
D13F,0.593
F11V,0.13
E12K,0.028
E12H,0.154
L8V,-0.463
P4R,0.51
R5L,0.214
S1D,1.06
S9E,0.184
N6H,-0.164
F2H,-0.488
N6R,0.281
E12L,-0.186

# Repeated from above (study 2):
Sequence,positive tests
B12 (IAA19),0
B17 (ARF4 660-788),0
B14 (ARF5 788-902),0
B15 (IAA33),1
B18 (IAA18),0
B13 (ARF12 500-593),0
B16 (ARF1 538-665),0
B19 (IAA32),1
